# Results from different studies.
# Numbers after ± are the reported error.
# Chain of UniProt Q8TDV0 (whole entry, looked up): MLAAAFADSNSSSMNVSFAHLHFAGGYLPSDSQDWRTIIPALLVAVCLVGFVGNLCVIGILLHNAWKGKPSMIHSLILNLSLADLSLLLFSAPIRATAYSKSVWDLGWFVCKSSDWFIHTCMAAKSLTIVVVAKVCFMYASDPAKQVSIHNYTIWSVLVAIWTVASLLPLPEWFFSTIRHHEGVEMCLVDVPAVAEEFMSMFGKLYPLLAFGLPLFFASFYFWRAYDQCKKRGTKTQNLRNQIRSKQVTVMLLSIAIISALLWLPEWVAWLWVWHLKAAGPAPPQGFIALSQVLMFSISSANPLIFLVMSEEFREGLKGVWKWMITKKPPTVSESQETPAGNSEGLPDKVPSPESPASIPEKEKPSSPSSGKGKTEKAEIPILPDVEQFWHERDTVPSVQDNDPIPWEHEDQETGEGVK
# Chain of UniProt Q9NZP8 (whole entry, looked up): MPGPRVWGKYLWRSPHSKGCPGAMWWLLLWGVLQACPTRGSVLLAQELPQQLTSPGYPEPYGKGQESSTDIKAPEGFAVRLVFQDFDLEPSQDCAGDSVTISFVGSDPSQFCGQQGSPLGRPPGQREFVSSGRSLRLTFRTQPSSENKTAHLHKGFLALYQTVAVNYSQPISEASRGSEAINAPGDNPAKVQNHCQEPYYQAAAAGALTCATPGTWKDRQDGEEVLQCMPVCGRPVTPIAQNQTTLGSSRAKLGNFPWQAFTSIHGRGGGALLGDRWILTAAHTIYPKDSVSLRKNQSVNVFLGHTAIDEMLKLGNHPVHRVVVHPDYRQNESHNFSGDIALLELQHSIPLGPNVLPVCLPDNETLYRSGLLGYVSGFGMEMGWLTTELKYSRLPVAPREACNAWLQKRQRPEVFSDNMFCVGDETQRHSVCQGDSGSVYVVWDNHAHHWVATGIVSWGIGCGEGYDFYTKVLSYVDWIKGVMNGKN
Structure (SMILES),target or system,test,system,conditions,how to read,endpoint,result
CCc1ccc(CC/C=C/c2ccc3c(c2)C(=O)CC3)cc1,,,"Sprague-Dawley rat, female","oral, 450 mg/kg/day, 14 days",,Globulin,22.3 g/L
CC(C)C(=O)OC[C@H]1O[C@@H](n2ccc(NO)nc2=O)[C@H](O)[C@@H]1O,,,rat fetus dialysate,"5 ng/mL, 6 h, 10 °C, low QC concentration, together with: NHC 25 ng/mL",,autosampler stability,99.4 ± 2.38%
CC[C@H](C)[C@H](NC(=O)[C@H](Cc1ccccc1)NC(=O)[C@H](CCC(=O)O)NC(=O)[C@H](CCCNC(=N)N)NC(=O)[C@H](C)NC(=O)[C@H](C)NC(=O)[C@H](CCC(N)=O)NC(=O)[C@H](CCC(=O)O)NC(=O)[C@H](CCC(=O)O)NC(=O)[C@H](CC(C)C)NC(=O)[C@H](Cc1ccc(O)cc1)NC(=O)[C@H](CO)NC(=O)[C@H](CO)NC(=O)[C@@H](NC(=O)[C@H](CC(=O)O)NC(=O)[C@H](CO)NC(=O)[C@@H](NC(=O)[C@H](Cc1ccccc1)NC(=O)[C@@H](NC(=O)CNC(=O)[C@H](CCC(=O)O)NC(=O)[C@H](C)NC(=O)CCc1c[nH]cn1)[C@@H](C)O)[C@@H](C)O)C(C)C)C(=O)N[C@@H](C)C(=O)N[C@@H](Cc1c[nH]c2ccccc12)C(=O)N[C@@H](CC(C)C)C(=O)N[C@H](C(=O)N[C@@H](CCCNC(=N)N)C(=O)NCC(=O)N[C@@H](CCCNC(=N)N)C(=O)N[C@@H](CCCCNC(=O)COCCOCCNC(=O)COCCOCCNC(=O)CC[C@H](NC(=O)CCCCCCCCCCCCCCCCC(=O)O)C(=O)O)C(=O)NCC(=O)NCC(=O)N[C@@H](CO)C(=O)N[C@@H](CCCCNc1c(NCCCCCN(O)C(=O)CCC(=O)NCCCCCN(O)C(=O)CCC(=O)NCCCCCN(O)C(C)=O)c(=O)c1=O)C(=O)O)C(C)C [zirconium-89 labelled],,,"rat, colon","iv, 3 nmol/kg, 72 h, ex vivo",,tissue uptake,0.2 %ID/g
CCC(C(=O)Nc1sc(C(N)=O)c(C)c1C(=O)OC)c1ccc(F)cc1 (stereo not shown),,,PBS,,,thermodynamic solubility,5.87 µM
CCc1nc(C(N)=O)c(Nc2ccc(N3CCC(N4CCN(C)CC4)CC3)c(OC)c2)nc1NC1CCOCC1,,,"patients, plasma","oral, 80 mg once daily, cycle 1 day 15, median",,Cmin,0.223 µg/mL
COc1ncnn2ccc(-c3cnc4nc(C)n(Cc5nnc([C@@H](C)F)o5)c4c3)c12,,,human patients,"oral, dose not given, grade 1 adverse drug reaction",,incidence of Hypotension,7.1%
CC[C@H](C)[C@H](NC(=O)[C@H](Cc1ccccc1)NC(=O)[C@H](CCC(=O)O)NC(=O)[C@H](CCCNC(=N)N)NC(=O)[C@H](C)NC(=O)[C@H](C)NC(=O)[C@H](CCC(N)=O)NC(=O)[C@H](CCC(=O)O)NC(=O)[C@H](CCC(=O)O)NC(=O)[C@H](CC(C)C)NC(=O)[C@H](Cc1ccc(O)cc1)NC(=O)[C@H](CO)NC(=O)[C@H](CO)NC(=O)[C@@H](NC(=O)[C@H](CC(=O)O)NC(=O)[C@H](CO)NC(=O)[C@@H](NC(=O)[C@H](Cc1ccccc1)NC(=O)[C@@H](NC(=O)CNC(=O)[C@H](CCC(=O)O)NC(=O)[C@H](C)NC(=O)CCc1cnc[nH]1)[C@@H](C)O)[C@@H](C)O)C(C)C)C(=O)N[C@@H](C)C(=O)N[C@@H](Cc1c[nH]c2ccccc12)C(=O)N[C@@H](CC(C)C)C(=O)N[C@H](C(=O)N[C@@H](CCCNC(=N)N)C(=O)NCC(=O)N[C@@H](CCCNC(=N)N)C(=O)N[C@@H](CCCCNC(=O)COCCOCCNC(=O)COCCOCCNC(=O)CC[C@H](NC(=O)CCCCCCCCCCCCCCCCC(=O)O)C(=O)O)C(=O)NCC(=O)NCC(=O)N[C@@H](CO)C(=O)N[C@@H](CCCCNC(=O)[C@H](CCCCNC(=O)[C@H](CCCCNc1c(NCCCCCN(O)C(=O)CCC(=O)NCCCCCN(O)C(=O)CCC(=O)NCCCCCN(O)C(C)=O)c(=O)c1=O)Nc1c(NCCCCCN(O)C(=O)CCC(=O)NCCCCCN(O)C(=O)CCC(=O)NCCCCCN(O)C(C)=O)c(=O)c1=O)NC(=O)[C@H](CCCCNc1c(NCCCCCN(O)C(=O)CCC(=O)NCCCCCN(O)C(=O)CCC(=O)NCCCCCN(O)C(C)=O)c(=O)c1=O)Nc1c(NCCCCCN(O)C(=O)CCC(=O)NCCCCCN(O)C(=O)CCC(=O)NCCCCCN(O)C(C)=O)c(=O)c1=O)C(=O)O)C(C)C [zirconium-89 labelled],,ex vivo gamma counting,"male Sprague-Dawley rats, spleen","intravenous, 1 nmol, 24 h",,tissue uptake,1.1 %ID/g
COc1cc2c(Oc3ccc4[nH]c(C)cc4c3F)ccnc2cc1OCC1(N)CC1,,,paediatric recurrent refractory sarcoma,"concentration not given, whole group",,grade 1 or 2 Dizzy,8.8%
CC[C@H](C)[C@@H]1NC(=O)[C@@H]2CCCN2C(=O)[C@H](CC(C)C)NC(=O)[C@H](CC(C)C)NC(=O)CNC(=O)[C@@H](NC(=O)[C@@H](NC(=O)[C@H](CC(=O)O)NC(=O)CNC(=O)[C@@H](NC(=O)[C@H](C)NC(=O)CNC(=O)[C@H](CCCCN)NC(=O)[C@H](CC(C)C)NC(=O)[C@H](CC(C)C)NC(=O)[C@H](CCCCN)NC(=O)CNC(=O)[C@@H](NC(=O)[C@@H](N)CC(C)C)C(C)C)C(C)C)C(C)C)CSSC[C@@H](C(=O)O)NC1=O,,"RNA-seq, measured: Rnase6","mouse, traumatic brain injury model, frontal cortex and hippocampus",dose not given,baseline: TBI alone,log2 fold change,-2.51
O=C1c2c(O)c(=O)ccn2N([C@@H]2c3ccccc3SCc3c2ccc(F)c3F)[C@@H]2COCCN12,,,BALB/c mouse,"subcutaneous, 0.5 mg/kg q12h",,Cmax,0.0366 µg/mL
CN1CC[C@@H](c2c(O)cc(O)c3c(=O)cc(-c4ccc(C(F)(F)F)cc4Cl)oc23)[C@@H]1CO,,measured: Hypoalbuminemia,relapsed B-cell malignancies,"oral, 150 mg, grade 3-4, intermittent dosing",,patients with adverse event,0%
O=C1Nc2cc3[nH]nc(-c4ccncc4)c3cc2CN1Cc1ccccc1,,CTCAE v4.03,"human, relapsed or refractory advanced solid tumours","intravenous, 1.8 mg/kg, pooled schedules",,patients with rash,100%
CC(C)CC(=O)OC[C@H]1O[C@@](C#N)(c2ccc3c(N)ncnn23)[C@H](O)[C@@H]1O,"ATP-dependent translocase ABCB1 (ABCB1, Homo sapiens, UniProt P08183)",,Caco-2,"0.9 µM, together with: verapamil 100 µM",,Papp B to A,34.5 nm/s
C[C@@H]1OC(=O)NN=C1c1ccc(-c2ccc(F)cc2)c(C(F)(F)F)c1,,"phase I trial, measured: Diarrhoea worst grade 1",human patients,"dose not given, all dose groups",,patients with adverse event,20%
O=S(=O)(Nc1ccccc1)c1ccc(NC(=S)Nc2ccccc2)cc1,,,"female mice, heart","oral, 20 mg/kg daily 14 days",baseline: body weight,relative organ weight,0.49%
O=C(c1ccc(Cl)cc1)N1CCN2C(=O)N(OC(=O)N3CCOc4ccccc43)C(=O)C2C1 (stereo not shown),"Complement C1r subcomponent-like protein (C1RL, Homo sapiens, UniProt Q9NZP8)",MS-based ABPP,SW-620 conditioned medium,"10 µM, 1 h, 37 °C","baseline: compound over DMSO, lower = more inhibition",mean protein ratio,1.07
C[C@]1(CO)Cc2ncn(-c3ccc(C#N)c(Cl)c3)c2C(=O)O1,,,"human, plasma","3 mg, first dose fasted",,AUC(0-inf),716 nM·h
COc1ccc(-c2c(-c3ccc(C#N)c(F)c3)nc(N3CCC(N)CC3)n(C)c2=O)cc1F,,measured: Vomiting,human patients,"oral, dose not given, grade 3 to 4, dose escalation, NG",,treatment-related adverse event incidence,0%
Oc1ccc2c3c1O[C@H]1[C@@H](O)CC[C@@]4(O)[C@@H](C2)N(CC2CCC2)CC[C@]314,"G-protein coupled receptor 151 (GPR151, Homo sapiens, UniProt Q8TDV0)","β-arrestin recruitment, TANGO luminescence, measured: GPR151",,concentration not given,baseline: basal luminescence,log2 fold change,-0.279
